# Assay results of several laboratories.
# Parts stem from different laboratories: compare values within a part only.

# Set 1
# Target: Histone acetyltransferase KAT6A, both winged helices, GST fusion (KAT6A, Homo sapiens, UniProt Q92794, residues 1-181)
# Method: protein binding microarray
# Form: double-stranded DNA, one strand shown
# Sample: in vitro
# Concentration: not given
# Notes: 8-mer, flanks averaged, mean of 2 arrays, mostly near background
# Reference: not given
# Direction: higher = stronger binding
# Residues (chain): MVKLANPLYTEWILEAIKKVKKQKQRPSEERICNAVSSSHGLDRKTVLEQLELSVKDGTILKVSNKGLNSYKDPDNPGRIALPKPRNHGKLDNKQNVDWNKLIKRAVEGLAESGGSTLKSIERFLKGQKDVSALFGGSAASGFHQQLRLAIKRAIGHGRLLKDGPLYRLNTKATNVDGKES
Strand,E-score
GCCAATAA,-0.057
CTCTGATC,-0.0602
CGTTCCCC,0.1
GACGTGAA,0.0431
AAGACTTA,-0.212
GATCTCGC,0.11
ATCTACTA,1.5e-05
CCGTAACA,0.187
CACACGCC,0.13
CCTTACTA,-0.163
CTAGCGTC,0.187
ACGCCCTA,0.00805
AAAACTTA,-0.188
AGCAACAT,0.00956
ATCCCAAG,-0.0736
GATCTGAC,0.0827
CACCCATC,-0.0834
ATTCCCAG,-0.0534
ACTCCAGT,-0.223
CATAGTTA,-0.0617
CTGTCATA,-0.0791
AGCGGATA,0.231
TGGACCAA,-0.0425
CCGTCTGC,0.233
GATAGTGC,0.0117

# Set 2
# Target: RING finger protein unkempt homolog, zinc fingers 1-6, GST-SBP tag (UNK, Homo sapiens, UniProt Q9C0B0, residues 30-357)
# Sequence of UniProt Q9C0B0 (30-357, looked up): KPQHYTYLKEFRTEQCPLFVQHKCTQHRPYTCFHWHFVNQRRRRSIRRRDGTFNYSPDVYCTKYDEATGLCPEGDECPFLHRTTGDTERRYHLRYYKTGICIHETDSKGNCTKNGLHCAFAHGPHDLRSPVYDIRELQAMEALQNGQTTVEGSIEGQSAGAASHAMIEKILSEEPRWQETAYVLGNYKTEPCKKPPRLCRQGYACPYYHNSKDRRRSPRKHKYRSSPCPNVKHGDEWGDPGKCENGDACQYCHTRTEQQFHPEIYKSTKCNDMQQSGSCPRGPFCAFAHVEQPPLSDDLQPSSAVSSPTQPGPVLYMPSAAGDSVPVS
# Method: RNA Bind-n-Seq
# Form: RNA
# Sample: in vitro
# Concentration: not given
# Notes: RNA with constant flanks, human-mouse chimeric sites, ends assumed
# Reference: input RNA pool
# Direction: higher = stronger binding
# Shared flanks, not repeated: GGGAGUUCUACAGUCCGACGAUC … CAACAGAGGAUUGAGCAUCA
Strand,bound/input enrichment [ratio]
GCUCCUCCCCGCUCUGCAGCCUGGGGACACUGGGCUGCAUUUUUUUUCCAGCUUUCUUUUAAAACUCUCAGUGUAACUGUAUCCCGUGACAUUUCAUUUUUUUUUUAUAGUGUAUUUUUU,16.7
AAAGAGUGGAUAGAGUGUGCACAUGGAAUCGGUGGGACCCGGGCGAAAAAGGAGUGCAAGAUAGAGUUCGAUGACUUCGUAGAGUGUUUGCUUCGGUACAAAACGAUGAGGCGAAUGCAU,0.46
ACCUCCCCCUCCCGCCUCACCCCACCCCCGCUUUUUGGAAAGUUUUUGGCUUUUUUUUUCCUUCCCCAGUUAGAAUUAUUACAGUUUCCCCCGCAAGGGUCUAUCGAAGGGCUUGACGGA,11.1
CGGAGCCCUCCUCUCCCACAGGCCCAAGAUAUAACCCACCAGUGCCUUUUGUCUUCCCGUUAGCUUUGUCAAUCACGGCCCUGCCUUCACGCCCACACCAAGUGCCCAAAGUGGGGAGGG,1.66
GAUAAGAAAAACUUGUUGGAGACCCGCUUGCAUGUCACUGGUAGAGACCUGAGGUGUCAAAUAGCUGAAACCUUUGGAUUUCAAGAAAAUUACAUCAAGAUCGUAAUAAAUAAGAAACAG,0.273
CUGGCCUGGCCCUCCCCAGGGGCCUCCUUCUCUGCAUUCACUGCUUCUGCUACGGAUACUUUCAGCUGCAACUCCCUACUGGGUGGGGCACCCAUUUCAGGCAGAAGGUUUUGGUACCCU,0.21
GGACAUCUGUCAAAUUGUAUUUCCCGUGUGAAACAAGUGAACACUCUUCAUAUACUAAUCUGCUUGUACAUCUGUAUGAUAGAGAAAUGUAAAUAUGUUAAUCCAAGCAAUGUGUCACUU,0.298
CAGCUGCAGACAGAGAAGGAUGAGAAGGAGCUGUAUAAGGUACAUUUGAAGAAUACAGAAAUAGAAAAUACGAAGCUUGUGUCAGAGAUACAGACUUUAAAGAAUUUAGAUGGGAACAAA,2.61

# Set 3
# Target: RNA binding protein fox-1 homolog 2, RRM domain, GST-SBP tag (RBFOX2, Homo sapiens, UniProt O43251-10, residues 100-194)
# Method: RNA Bind-n-Seq
# Form: RNA
# Sample: in vitro
# Concentration: 365 nM
# Notes: natural RNA segment, single round, ends assumed
# Reference: no-protein control
# Direction: higher = stronger binding
# Shared flanks, not repeated: GGGAGUUCUACAGUCCGACGAUC … UGGAAUUCUCGGGUGCCAA
# Construct (chain): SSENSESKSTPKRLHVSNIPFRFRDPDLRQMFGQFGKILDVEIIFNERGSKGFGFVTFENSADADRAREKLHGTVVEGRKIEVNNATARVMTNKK
Strand,RBNS enrichment (R)
UCGCAGCUGGAGUGAGAGGCAGGUGGCGGCCGGGGCCGAAGCCAGCAGUGUCUAAACCCCCGGAGCCAUCUUGCUGCCGACACCCUGCUUUCCCCUCGCCCUAGGGCUCC,0.208
UUAUUUUUUAUUUUAAAAGAAAAUUGACUUAUUUACCACAAGCUAUUUUUUUCCCUUCUGGCUGUAAGGUUUGUACAGACUGGUUUGGUAAAUGCUAAACUUUUGUGUCU,1.34
CAUAAGGAGCUUUAGACCAGUCAAUGAUACAUAGUGAAACCCUACCUCAAAAACAAAACAAAAAAAAUGUUUUUACGCAUUUUAUCAAAAUUAGCACAUCUGUGGCUGAG,0.48
UGGCUGUUUGAACAGCAGCGUUUCAUAGGAAGAGAAAAAAAGAUCAAUCUUGUAUUUUCUGACCACAUAAAGGCUUCUUCUCUUUGUAAUAAAGUAGAAAAGCUCUCCUC,0.265
UAACCCCGGCUCUCCCUUUUCCACCCUACCCACCUAAAGAAGCACAGGCCCCACGAAGCAGGGGCCACACCCUUGUCCUGGGCUGCCUUCUGGCUGGCUUCUCUCUGCCA,0.442
UUUGCAAUGAUCUGUGCCUUCUUUCUACCACCCUCUUGAUUGGAGCUUUUGUGAUGCAGCUACCAUGAUUCCAAAUAAGUAAAAAUCAGCCACUUCUCCCUGUCCACUAG,8
AGAAAACUGGACCUGAGGGCAUUAGGAACAUCCUACAGAGUUGUGUUUAGUGUCGUUUGCCAUGGUAUUUCACAGUGAAACAUGGAUACUCUCCACACAUCAUUUACUUC,0.365
UUUCUUCAUGUUUCUUCUUUGUAUAUUUGGUGACUGUAUCGUCAUAGAUGUACAUAUUGUGUCGGUAGGGCUAUGAGGCAUGUUACAGGAAUGUAAUUUUCUCAGAAUUU,0.372
UCUCUCAGGAGCACGUGUGAACCGUCUUCGUGCUUCAGCGAAAGCGAGUUUGAGGCAGUCUUGCAAGAUUCUCAGACUAAUUUCCAAAAGGAAACCGGAUGCCAACUUCC,0.306
CCUUUUUUCCAAUCAAGCUGUUUCCCCUGUUCUUACCCUAUAUAAGUUGCAAACAAUAUCGCUGAACAGUAGGGUGUGUGGUGGUUUGGGGCAGUCUGACUUCACUUUAG,0.33
GACAUAUUCAAAAGGUGGGCUUGUCUAAGGUUCCCACAGAAAUGUAAGUAUGAGCCUACUGUUUUGUUUCCUAGUCCCAUGGACAAGUAGCAUACCAGGGGGCAAGAAGC,0.38
AACUGAUUUAAAUAAUAUGUGUCUUUGUUUUGCAGCCCUGAAUGCAAAGAAUUCAUAGCAGUUAAUUCCCCUUUUUGACCCUUUUGAGAUGGAACUUUCAUAAAGUUUCU,0.427

# Set 4
# Target: Sal-like protein 4, full length isoform A (SALL4, Homo sapiens, UniProt Q9UJQ4, residues 1-1053)
# Sequence of UniProt Q9UJQ4 (whole entry, looked up): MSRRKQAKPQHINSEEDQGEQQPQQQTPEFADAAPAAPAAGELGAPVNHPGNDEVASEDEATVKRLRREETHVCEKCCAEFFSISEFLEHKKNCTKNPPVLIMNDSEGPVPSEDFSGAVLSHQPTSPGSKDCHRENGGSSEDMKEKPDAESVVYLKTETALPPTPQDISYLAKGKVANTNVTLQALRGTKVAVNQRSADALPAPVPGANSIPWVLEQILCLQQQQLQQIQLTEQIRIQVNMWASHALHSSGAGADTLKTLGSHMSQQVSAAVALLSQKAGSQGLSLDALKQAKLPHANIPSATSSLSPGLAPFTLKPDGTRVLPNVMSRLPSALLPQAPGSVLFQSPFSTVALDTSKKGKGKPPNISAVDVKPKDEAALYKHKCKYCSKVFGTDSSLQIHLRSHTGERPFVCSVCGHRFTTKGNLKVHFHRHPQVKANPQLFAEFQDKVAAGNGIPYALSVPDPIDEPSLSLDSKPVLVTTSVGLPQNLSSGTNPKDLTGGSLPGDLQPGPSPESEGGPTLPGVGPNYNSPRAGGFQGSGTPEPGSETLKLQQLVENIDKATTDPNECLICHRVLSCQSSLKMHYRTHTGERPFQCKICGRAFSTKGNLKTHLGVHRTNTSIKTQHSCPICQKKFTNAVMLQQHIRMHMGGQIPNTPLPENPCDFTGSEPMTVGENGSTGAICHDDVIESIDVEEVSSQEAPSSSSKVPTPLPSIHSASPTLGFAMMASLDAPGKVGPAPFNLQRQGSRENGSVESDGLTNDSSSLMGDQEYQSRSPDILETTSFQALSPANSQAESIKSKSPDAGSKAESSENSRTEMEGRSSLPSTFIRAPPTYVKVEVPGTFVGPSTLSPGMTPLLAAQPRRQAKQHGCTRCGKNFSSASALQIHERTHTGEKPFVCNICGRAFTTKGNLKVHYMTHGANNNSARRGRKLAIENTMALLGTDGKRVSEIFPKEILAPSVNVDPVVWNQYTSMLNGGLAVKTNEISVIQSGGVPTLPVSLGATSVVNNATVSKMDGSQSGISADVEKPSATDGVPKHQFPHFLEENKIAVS
# Method: universal PBM
# Form: double-stranded DNA, one strand shown
# Sample: in vitro
# Concentration: 600 nM
# Notes: 8-mer, flanks averaged, mean of replicates
# Direction: higher = stronger binding
Strand,E-score
ACACGTAT,0.168
AAGCGCAA,-0.0308
ACTGATAG,0.0636
ACAGTCAA,0.0331
AATTGAAT,0.28
AAGTAGGG,0.0802
ATTAACCA,0.152
ACAATTAA,0.38
CAGACTCA,-0.11
CCTTAGTC,-0.0282
AGAACAAT,0.288
CTCCCCCC,-0.331
ATCCCCGG,-0.387
AAATTTGA,0.312
ACGAATAG,0.0587
CGGCCGCC,-0.339
TAGGCAGA,0.158

# Set 5
# Target: Prothrombin, mature alpha-thrombin (F2, Homo sapiens, UniProt P00734)
# Method: aptamer microarray, sandwich
# Form: DNA with 2'F-ANA
# Sample: in vitro
# Concentration: 200 nM
# Notes: whole 15-mer aptamer, many near background
# Together with: Cy3 exosite-II aptamer, 400 nM
# Direction: higher = stronger binding
# Strand: GGTTGGTGTGGTTGG
Modification,mean fluorescence intensity [a.u.]
2'F-ANA at 1 2 3 4 10 15,59.2
2'F-ANA at 1 3 7 9,314
2'F-ANA at 4 8 10 12 15,118
2'F-ANA at 1 2 4 8 11 12,271
2'F-ANA at 1 2 3 8 11 13 14,81.8
2'F-ANA at 2 3 4 5 6 14,54.1
2'F-ANA at 1 2 4 5 6 9 10,51.9
2'F-ANA at 2 3 4 8 9 12 14,362
2'F-ANA at 1 2 3 4 7 8 13,154
2'F-ANA at 1 2 3 6 7 8 10 15,85.1
2'F-ANA at 5 7 8 10 13 15,45.8
2'F-ANA at 1 2 3 4 5 8 9 10 12 14 15,178
2'F-ANA at 1 2 4 5 7 10 12 15,47
2'F-ANA at 5 6 7 9 10 11 12 15,79.9
2'F-ANA at 1 3 5 10 11 13 15,45.7
2'F-ANA at 2 6 9 10 12 13,122
2'F-ANA at 1 3 5 6 8 9,69.5
2'F-ANA at 2 4 7 8 9,451
2'F-ANA at 4 8 9 11 15,266
2'F-ANA at 2 4 7 10 11 12 13 15,95.6
2'F-ANA at 4 9 14 15,84.3
2'F-ANA at 2 3 4 5 7 9 13,257

# Excerpt of the above (set 1):
Strand,E-score
ATCCCAAG,-0.0736
GATCTGAC,0.0827
CACCCATC,-0.0834
ATTCCCAG,-0.0534
ACTCCAGT,-0.223
CATAGTTA,-0.0617
CTGTCATA,-0.0791
AGCGGATA,0.231
TGGACCAA,-0.0425
